Assay results gathered from unrelated publications.
Compare with care: the assays were run in different laboratories. “And” joins repeats or separate records; there may be more than shown. Numbers after ± are the reported error.

Compound	target or system	test	system	setting	scale	endpoint	value
Cl.[2H]C([2H])([2H])CC(=O)c1cnc(NC(=O)C2CC2)cc1Nc1cccc(-c2ncn(C([2H])([2H])[2H])n2)c1OC	–	–	human, fasted	oral, 25 mg, single dose, liquid formulation, geometric mean	–	AUC(0-24 h)	1640 ng·h/mL
CCn1cc(C(=O)N2CCOCC2)c(=O)c2cc(NC3Cc4ccccc4C3)cnc21	–	–	human, fasted, plasma	oral, 1200 mg single dose, tablet, arithmetic mean	–	half-life	4.33 h
CNC(=O)c1ccc(-c2cnc3ncc(Cc4ccc5ncccc5c4)n3n2)cc1F	–	–	Japanese patients	oral, 400 mg, any grade	–	ALT increased dose reduction/interruption	2%
Oc1ccc(/C=C/c2cc(O)cc(O)c2)cc1	–	–	rat, azoxymethane-injected, blood at sacrifice	10 mg/kg	–	albumin	4.8 g/dL
Oc1ccc2c3c(cnc2c1)-c1ccc(C(F)(F)F)cc1O[C@@H]3c1ccc(OCCN2CC(CF)C2)cc1	–	–	mouse, non-tumour-bearing, brain	oral, dose not given, 7 days daily, added: fulvestrant s.c.	–	total brain concentration	464 nmol/L
Cc1ccc([C@@H]2O[C@H](CO)[C@@H](O)[C@H](O)[C@H]2O)cc1Cc1ccc(-c2ccc(F)cc2)s1	–	–	Japanese type 2 diabetes patients	400 mg, day 5, 24 h urine collection	baseline: baseline	urinary chloride excretion change	-18 mEq
Cc1cc(NC2CCN(C(=O)OC3CCN(C(=O)/C=C/CN(C)C)C3)CC2)n2ncc(C(C)C)c2n1 (centres unmarked)	–	Phase I dose escalation CTCAE v4.0, refers to: AST increased	patients with advanced solid tumours	dose not given, Total dosing any grade	–	patients with adverse event	19%
CCO[C@H]1CCN(Cc2c(OC)cc(C)c3[nH]ccc23)[C@H](c2ccc(C(=O)O)cc2)C1	–	–	PNH patients, active haemolysis	oral, 200 mg, 8 weeks, treatment	–	incidence of nasopharyngitis	20%
N#Cc1ccc2c(c1)[C@H]1CCCN(C(=O)c3ccc4[nH]cnc4c3)[C@H]1C2	–	–	human females	80 mg, end of trial	–	androstenedione	3.8 nmol/L
CC[C@@H]1CN(C(=O)NCC(F)(F)F)C[C@@H]1c1cnc2cnc3[nH]ccc3n12	–	population PK modelling	human	oral, extended-release formulation, outliers excluded	–	zero-order input duration	3.29 h
N#C[C@@]1(c2ccc3c(N)ncnn23)O[C@H](CO)[C@@H](O)[C@H]1O	–	–	male beagle dogs, plasma	oral capsule, 6.5 mg/kg	–	lag time	0 h
COc1cc2c3cc1Oc1c(OC)c(OC)cc4c1[C@@H](Cc1ccc(O)c(c1)Oc1ccc(cc1)C[C@@H]3N(C)CC2)N(C)CC4	–	–	mouse plasma, K3EDTA	0 h, 37 °C	–	remaining compound	100%
COc1ccccc1NC(=O)CSc1nnc(-c2ccccc2Cl)n1-c1ccccc1	–	–	octanol/buffer	pH 11, known kinase inactives set	–	logP	3.98
FC(F)(F)c1ccc(CNc2ccc(Cc3c[nH]c4ncc(Cl)cc34)cn2)cn1	–	refers to: dry skin	human, advanced solid tumours, non-TGCT cohort	oral, 1000 mg/day, any grade	–	treatment-related adverse events	0%
CC(C)COC(=O)c1ccc2c(c1)/C(=N/Nc1ccc(S(N)(=O)=O)cc1)C(=O)N2	–	–	octanol/buffer, 40 mM buffer	pH 11	–	logP	1.19
NS(=O)(=O)c1cc(C(=O)O)c(NCc2ccco2)cc1Cl	–	refers to: nervous system disorders	healthy men	oral, 8 days, treatment-emergent, crossover trial	–	subjects with adverse event	0%
NC1(C(=O)N[C@@H](CCO)c2ccc(Cl)cc2)CCN(c2nc[nH]c3nccc2-3)CC1	–	–	metastatic CRPC patients	dose not given, grade 3 to 4, treatment-related, all doses, added: enzalutamide 160 mg daily	–	incidence of Blindness	0%
O=C(O)CCC(=O)O.[2H]C([2H])([2H])Oc1cc(C)c2[nH]ccc2c1CN1CC[C@@H](C2CC2)C[C@H]1c1ccc(C(=O)O)cc1	–	multiple ascending dose	healthy Chinese subjects	50 mg twice daily	–	subjects with elevated bilirubin TEAE	0%
CNc1ccc(-c2nc3ccc(O)cc3s2)cc1 [carbon-11 labelled]	–	microPET/CT imaging	APP/PS1 mouse, AD model, heart	intravenous, 15 min	–	SUV	0.749 ± 0.482
CC(C)(C(=O)N1CCOc2c(C#N)cncc2C1)C(F)F	–	refers to: Nausea	human	oral, 10 mg, CSF pharmacokinetic cohort	–	subjects with adverse event	16.7%

Compound	target or system	test	system	setting	scale	endpoint	value
CCc1cc(C(=O)NC)c2nccc(N3CCc4c(cc(Cn5ccnc5)cc4-c4cn(C)nc4C(F)(F)F)C3=O)c2c1	–	–	Sprague Dawley rats	oral, 100 mg/kg once daily, 7 days	–	serum TG level	0.8 ± 0.17 mmol/L
COc1c(OCCCN2CCOCC2)ccc2c1N=C(NC(=O)c1cnc(N)nc1)N1CCN=C21	–	–	human	concentration not given, added: rifampin	–	increase in clearance	191%
CC1=C(c2cccc(O)c2)[C@H](c2ccc(OCCN3CC(CF)C3)cc2)Oc2ccc(O)cc21	–	–	human, plasma	oral, 1000 mg single dose, geometric mean	–	AUC(0-24 h)	1100 ng·h/mL
O=C(Nc1nc2cccc(-c3ccc(CN4CCS(=O)(=O)CC4)cc3)n2n1)C1CC1	–	refers to: thrombocytopenia	rheumatoid arthritis patients	oral, 75 mg once daily, 4 weeks, any relatedness	–	treatment-emergent adverse events	0%
C[C@@H](O)[C@H](NC(=O)c1ccc(-c2ccccc2)cc1)C(=O)NO	–	–	octanol/buffer	pH 11	–	logP	0.07
Cn1cnc2c1c(=O)[nH]c(=O)n2C	–	–	human, both sexes, cerebrospinal fluid	dose not given, median	–	CSF concentration	333 nM
Cn1cc(-c2ccc(-c3cncc(Cl)c3N3CCC4(CCNC4=O)CC3)cc2)cn1	COLO 205	gene expression, microarray, refers to: ACTA2 mRNA	–	concentration not given, 6 h	baseline: untreated cells	log2 fold change	1.85
NC(=O)c1ccc(NCCCN2CCOCC2)c([N+](=O)[O-])c1	–	–	octanol/buffer	pH 11, known kinase inactives set	–	logP	0.49
Nc1ccn([C@@H]2CS[C@H](CO)O2)c(=O)n1	–	–	Tat- transgenic mouse, hippocampus	subcutaneous osmotic pump, dose not given, 5 d	–	drug concentration	27300 ± 3400 ng/g
OCc1nc2ccc(NCc3ccc(C(F)(F)F)cc3)cc2[nH]1	–	–	Balb/c mice, male, plasma	intravenous, 1 mg/kg	–	Vss	3.96 ± 0.5 L/kg
N[C@H]1C(O)O[C@H](CO)[C@@H](O)[C@@H]1O (some centres unmarked)	–	–	aqueous solution	2 mM, added: glucose	–	osmolality	0 mOsmol/kg
CC(=O)N(C)C1CCN(c2cc(F)cc(NC(=O)c3cc4c(F)ccc(C)c4[nH]3)c2)C1 (centres unmarked)	–	–	CD1 mouse	oral, 50 mg/kg	–	CL/F	5660 mL/min/kg
CC(C)(C)c1ccc(O)c(CN(Cc2cc(C(C)(C)C)ccc2O)C2CCC(NC(N)=O)CC2)c1 (centres unmarked)	–	–	mouse brain	2000 ng/g, 3 months, -20 °C, long-term storage	–	recovery	100.8 ± 0.19%
O=S(=O)(NCCSc1ccccn1)c1ccc(Br)cc1	–	–	octanol/buffer	pH 11, known kinase inactives set	–	logP	2.85
COc1cc(C=CC(=O)O)ccc1O[C@@H]1O[C@H](C(=O)O)[C@@H](O)[C@H](O)[C@H]1O	–	–	human, cerebrospinal fluid	concentration not given, median	–	CSF concentration	13.2 nM
CC[C@H](C)CCCCC(=O)N[C@@H](CCN)C(=O)N[C@H](C(=O)N[C@@H](CCN)C(=O)N[C@H]1CCNC(=O)[C@H]([C@@H](C)O)NC(=O)[C@H](CCN)NC(=O)[C@H](CCN)NC(=O)[C@H](CC(C)C)NC(=O)[C@@H](Cc2ccccc2)NC(=O)[C@H](CCN)NC1=O)[C@@H](C)O	–	–	long-term haemodialysis patients, plasma	IV, 0.75 mg/kg	baseline: healthy subjects	Vz increase	60%
CCc1c(-c2ccccc2)c(-c2ccccc2)nn1-c1ccccc1-c1cccc(OCC(=O)O)c1	–	–	Sprague-Dawley rat, heart	oral, 10 mg/kg, 1 h	–	concentration	3210 ng/g and 2680 ng/g
O=C(O)CCCOc1ccc([18F])cc1-c1cc(-c2ccccc2C(F)(F)F)n(-c2ccccc2)n1	–	gamma counting	male ddY mice, kidney	intravenous, 2.1 MBq, 1 min	–	radioactivity uptake	3 ± 0.61 SUV
CNC(=O)c1ccc(-c2cnc3ncc(Cc4ccc5ncccc5c4)n3n2)cc1F	–	refers to: Fatigue, all grades	cancer patients	oral, dose not given, dose escalation, any causality	–	patients with adverse event	26%
C=CC(=O)NC1CCN(c2ncc3ncnc(Nc4ccc(Oc5ccc6c(c5)ncn6C)c(C)c4)c3n2)CC1	–	–	human, male	oral, 240 mg, treatment-emergent adverse event	–	participants with headache	25%

Compound	target or system	test	system	setting	scale	endpoint	value
CNCc1ccc(-c2[nH]c3cc(F)cc4c3c2CCNC4=O)cc1	–	refers to: any adverse event	human patients	oral, 600 mg twice daily, grade 2	–	patients with adverse event	23.1%
COc1cc(C(=O)N2CCC3(CC2)CC(=O)c2c(cnn2C(C)C)C3)cc(-c2ccc(C(=O)O)cc2)n1	–	refers to: direct LDL cholesterol	human, fasting serum	10 mg every 12 h, day 13, adjusted geometric mean	baseline: baseline	percentage change from baseline	-2.4%
COc1ccc2nc(COc3ccc(CC4SC(=O)NC4=O)cc3)n(C)c2c1 (centres unmarked)	–	–	octanol/buffer	67 µM, pH 11	–	logP	2.86
CC1(C)CCC(CN2CCN(c3ccc(C(=O)NS(=O)(=O)c4ccc(NCC5CCOCC5)c([N+](=O)[O-])c4)c(Oc4cnc5[nH]ccc5c4)c3)CC2)=C(c2ccc(Cl)cc2)C1	–	UPLC-MS/MS	non-responders	oral, dose not given, 6 h, normalised to dose per body weight	–	dose-normalised C6 (C6/D)	0.32
CN(CCCN1CCN(C(=O)CN2CCN(CC(=O)[O-])CCN(CC(=O)[O-])CCN(CC(=O)[O-])CC2)CC1)c1ccc2nccc(C(=O)NCC(=O)N3CC(F)(F)C[C@H]3C#N)c2c1.[68Ga+3]	–	–	mice, HT-1080.hFAP and HT-1080 wild-type xenografts, pancreas	iv, 500 pmol, 4 h post injection	–	uptake	0.1 %IA/g
N#CCC1CCN(c2nc(Nc3ccc(N4CCC(O)CC4)cc3)c3c(=O)[nH]ncc3n2)CC1	–	–	human, plasma	oral, 80 mg once daily, day 1	–	AUC(0-24 h)	2120 ng·h/mL
Cc1cc(-c2nccc3c2ccn3CC(=O)Nc2ccc(-c3cnccn3)cn2)ccn1	–	–	human	5 mg once daily, multiple ascending dose	–	post-procedural erythema	12.5%
Cc1ccc(Sc2ccccc2N2CCNCC2)c(C)c1	–	refers to: metrorrhagia	healthy adult women	oral, 10 mg daily, 12 days	–	participants with TEAE	16.7%
Cn1c(C(F)(F)F)cc(=O)n(-c2cc(Oc3cccnc3OCC(=O)O)c(Cl)cc2F)c1=O	–	–	Crl:CD1(ICR) mice, female, plasma	oral diet, 25 ppm in diet, day 1, 90-day toxicity study	–	Cmax	152 ng/mL
CC[C@@](O)(c1cnc(C(F)(F)F)c(Cl)c1)c1c2ccn(C3CC3)c(=O)c2nn1C	–	–	rat Sprague-Dawley male, blood	intravenous, 1 mg/kg	–	CLint,u	27.3 mL/min/kg
COc1ccc(-n2c(SCC(N)=O)nnc2-c2cccs2)cc1	–	–	octanol/buffer	pH 11, known kinase inactives set	–	logP	1.66
Cc1ccc(C)c(OCCCC(C)(C)C(=O)O)c1	–	–	human, plasma	oral, dose not given, day 17 predose, geometric mean	–	trough plasma concentration	1550 ng/mL
CC(C)n1c(Nc2cccnc2)nc2cnc(Nc3ccc(N4CCN(C)CC4)cc3)nc21	–	refers to: platelet count decreased	healthy male subjects	oral, 100 mg, study, added: gemfibrozil	–	subjects with adverse event	0%
Cn1cc([C@H]2C[C@H]3CSC(N)=N[C@@]3(c3ccc(F)cc3F)CO2)cn1	–	–	male 129/SVE mouse, brain	subcutaneous, 10 mg/kg, 1 h	–	brain concentration	1350 nM
Cc1cc(C)c(CNC(=O)c2cc(Cl)c3c(c2C)O[C@@](C)([C@H]2CC[C@H](N(C)C)CC2)O3)c(=O)[nH]1	–	–	relapsed/refractory NHL patients	oral, 200 mg once daily, onset after cycle 1 day 1	–	grade ≥3 adverse event Hyperglycemia	4.2%
CC[C@H](C)/C=C/C(=O)N1C[C@@H](C)C[C@H]1C(=O)N[C@@H](CCC1CCCCC1)C(=O)N[C@H](C(=O)NC(C)(C)C(=O)N[C@@H](CC(C)C)C(=O)N[C@@H](CC(C)C)C(=O)NC(C)(C)C(=O)NC(C)(C)C(=O)NCCC(=O)N[C@@H](C)CN(C)C)[C@H](O)C(C)C	–	circular dichroism	phosphate buffer	pH 7.4, 20 °C	–	alpha-helix content	76%
CCN1/C(=C/C(C)=O)Sc2ccc(F)cc21	–	–	cynomolgus monkey	oral, 100 mg/kg, 6 h post-dose	–	heart rate	94 ± 21 beats/min
CO[C@H]1/C=C/O[C@@]2(C)Oc3c(C)c(O)c4c(O)c(c(/C=N/N5CCN(C)CC5)c(O)c4c3C2=O)NC(=O)/C(C)=C\C=C\[C@H](C)[C@H](O)[C@@H](C)[C@@H](O)[C@@H](C)[C@H](OC(C)=O)[C@@H]1C	–	–	healthy humans	oral, dose not given	–	adverse event Gingivitis	0%
N#C[C@@]1(c2ccc3c(N)ncnn23)O[C@H](CO)[C@@H](O)[C@H]1O	–	–	Sprague-Dawley rat, both sexes, bile	80 mg/kg, time not given	baseline: dose	recovery in bile	0.639%

For quick reference, copied from above:
Compound	target or system	test	system	setting	scale	endpoint	value
Cc1cc(-c2nccc3c2ccn3CC(=O)Nc2ccc(-c3cnccn3)cn2)ccn1	–	–	human	5 mg once daily, multiple ascending dose	–	post-procedural erythema	12.5%
Cc1ccc(Sc2ccccc2N2CCNCC2)c(C)c1	–	refers to: metrorrhagia	healthy adult women	oral, 10 mg daily, 12 days	–	participants with TEAE	16.7%
Cn1c(C(F)(F)F)cc(=O)n(-c2cc(Oc3cccnc3OCC(=O)O)c(Cl)cc2F)c1=O	–	–	Crl:CD1(ICR) mice, female, plasma	oral diet, 25 ppm in diet, day 1, 90-day toxicity study	–	Cmax	152 ng/mL
CC[C@@](O)(c1cnc(C(F)(F)F)c(Cl)c1)c1c2ccn(C3CC3)c(=O)c2nn1C	–	–	rat Sprague-Dawley male, blood	intravenous, 1 mg/kg	–	CLint,u	27.3 mL/min/kg
